Measurements gathered from unrelated publications.
Lines come from different studies, so protocols differ. ± gives the spread as reported. In brackets after ≈: the same amount, converted by molar mass.

`CN[C@@](C)(C[18F])C(=O)O` gave a tissue uptake of 3.6 ± 0.4 %ID/g (SCID mouse A549 xenograft, heart; 30 min, post injection).
With `O[C@H]1CCCN[C@@H]1CCCn1cnc2c(Cl)c(Cl)ccc21` the Vd/F was 2410 L (human, plasma; oral, 500 mg, single dose, healthy volunteers).
For `COc1ccc(C[C@@H]2NC(=O)[C@H]([C@@H](C)O)NC(=O)[C@@H]3[C@@H]4CCN3C(=O)[C@@H]3Cc5cn(c6ccc(F)cc56)CCCCCCN(Cc5ccc(cc5)CCNC(=O)[C@]5(C)CCCN5C2=O)C(=O)CCC(=O)N[C@@H](C)C(=O)N[C@H](CNC(=O)CCCCC[N+](C)(C)C)C(=O)N[C@@H](Cc2cccc(c2)CNC(=O)CO4)C(=O)N3)cc1`, the plasma concentration was 8.47 nM (fasted healthy men, plasma; oral, 100 mg single dose, 24 h, with 1800 mg Labrasol, median).
With `c1cc2ccc3cccc4ccc(c1)c2c34` the tissue concentration was 26.7 ± 5.2 ng/g (HPLC-fluorescence; Wistar rat, male, spleen; oral, 4 mg/kg, 24 h).
`CC(=O)N[C@@H](Cc1c[nH]c2ccccc12)C(=O)N[C@@H](CC(=O)O)C(=O)N[C@@H](CC(=O)O)C(=O)N[C@@H](C)C(=O)N[C@H](C(=O)N[C@@H](CCCCN)C(=O)N[C@H](C(=O)N[C@@H](Cc1c[nH]c2ccccc12)C(=O)N[C@H](C(=O)NCC(N)=O)[C@@H](C)O)[C@@H](C)O)[C@@H](C)O` gave a Tm of 20 ± 2.5 °C (circular dichroism; phosphate buffer; pH 6.5).
For `CC1(C)S[C@@H]2[C@H](NC(=O)[C@H](C(=O)O)c3ccsc3)C(=O)N2[C@H]1C(=O)O`, the t1/2 was 1.04 ± 0.09 h (Sprague-Dawley rat, plasma; intravenous, 144 mg/kg).
With `[Cl][Mn][Cl]` the EC20 was over 800 µM (cytochrome c release, ELISA; mouse liver mitochondria; 30 min; relative to: maximal release by alamethicin).
`CC[C@H](C)[C@H](NC(=O)[C@@H](N)CCCNC(=N)N)C(=O)N[C@H](C(=O)N1CCC[C@H]1C(=O)N[C@@H](C)C(N)=O)C(C)C` has a Cmax of 13600 ng/mL (human, plasma; intravenous, 5 mg/kg, single dose, healthy volunteers).
With `NC(=O)c1nc(F)c[nH]c1=O` the solubility was 2620 µg/mL (≈ 16.7 mM) (UV-Vis spectrophotometry; supercritical CO2; 120 min, 338 K, 30 MPa, 809.58 kg/m^3).
For `O=C(NCCS)c1cccc(C(=O)NCCS)c1`, the concentration was 493 ng/mL (male Sprague-Dawley rat, plasma; intravenous, 1 mg/kg, 4.98 min).
For `CSCC[C@H](NC(=O)[C@H](CCCNC(=N)N)NC(=O)[C@@H](NC(=O)[C@@H](NC(=O)[C@H](CCCNC(=N)N)NC(=O)[C@@H]1CCCN1C(=O)[C@H](CCCNC(=N)N)NC(=O)[C@@H](NC(=O)[C@H](Cc1c[nH]cn1)NC(=O)[C@H](CCCNC(=N)N)NC(=O)[C@H](CC(C)C)NC(=O)[C@H](CCCCN)NC(=O)[C@H](CC(C)C)NC(=O)CNC(=O)[C@H](CCCNC(=N)N)NC(=O)[C@H](CCCCN)NC(=O)[C@@H](NC(=O)c1ccc2c(c1)C(=O)OC21c2ccc(O)cc2Oc2cc(O)ccc21)C(C)C)C(C)C)C(C)C)[C@@H](C)O)C(=O)N[C@@H](CC(=O)O)C(=O)N[C@H](C(=O)O)C(C)C`, “apparent skin permeability” read “no effect” (no effect; Sprague-Dawley rat, excised skin; 50 µmol/L, 37 °C, FAM-labelled CPP conjugate; relative to: free FAM).
`O=c1[nH]c(Cc2ccccn2)nc2c1cnn2C1CCOCC1` has an AUC(0-inf) of 0.539 µM·h (healthy men, extensive metabolizers, plasma; oral, 50 mg single dose, tablet, geometric mean).
`CCCCCCCC[N+](C)(C)CCCCCCCC` — result for “unbound fraction in blood”: 0.098 (ultrafiltration; human serum).
The tissue/plasma ratio of `[123I]c1cncc(OC[C@@H]2CCN2)c1` is reported as 23.4 (SPECT; human, thalamus; intravenous bolus, 2.1 mCi; relative to: plasma).
`CC[C@H](C)[C@H](NC(=O)[C@H](CC(C)C)NC(=O)[C@H](Cc1c[nH]c2ccccc12)NC(=O)[C@H](CCC(N)=O)NC(=O)[C@@H](NC(=O)[C@H](Cc1ccccc1)NC(=O)[C@H](C)NC(=O)[C@H](CCCCNC(=O)COCCOCCNC(=O)COCCOCCNC(=O)CC[C@H](NC(=O)CCCCCCCCCCCCCCCCCCC(=O)O)C(=O)O)NC(=O)[C@H](CCC(N)=O)NC(=O)[C@H](C)NC(=O)[C@@H](NC(=O)[C@H](CCCCN)NC(=O)[C@H](CC(=O)O)NC(=O)[C@H](CC(C)C)NC(=O)C(C)(C)NC(=O)[C@@H](NC(=O)[C@H](CO)NC(=O)[C@H](Cc1ccc(O)cc1)NC(=O)[C@H](CC(=O)O)NC(=O)[C@H](CO)NC(=O)[C@@H](NC(=O)[C@H](Cc1ccccc1)NC(=O)[C@@H](NC(=O)CNC(=O)[C@H](CCC(=O)O)NC(=O)C(C)(C)NC(=O)[C@@H](N)Cc1ccc(O)cc1)[C@@H](C)O)[C@@H](C)O)[C@@H](C)CC)[C@@H](C)CC)C(C)C)C(=O)N[C@@H](C)C(=O)NCC(=O)NCC(=O)N1CCC[C@H]1C(=O)N[C@@H](CO)C(=O)N[C@@H](CO)C(=O)NCC(=O)N[C@@H](C)C(=O)N1CCC[C@H]1C(=O)N1CCC[C@H]1C(=O)N1CCC[C@H]1C(=O)N[C@@H](CO)C(N)=O` has a CL/F of 1.03 mL/min (human, normal renal function, plasma; subcutaneous, 5 mg single dose, geometric mean).
The tmax of `CC[C@H](C)[C@H](NC(=O)[C@H](CC(C)C)NC(=O)[C@H](Cc1c[nH]c2ccccc12)NC(=O)[C@H](CCC(N)=O)NC(=O)[C@@H](NC(=O)[C@H](Cc1ccccc1)NC(=O)[C@H](C)NC(=O)[C@H](CCCCNC(=O)COCCOCCNC(=O)COCCOCCNC(=O)CC[C@H](NC(=O)CCCCCCCCCCCCCCCCCCC(=O)O)C(=O)O)NC(=O)[C@H](CCC(N)=O)NC(=O)[C@H](C)NC(=O)[C@@H](NC(=O)[C@H](CCCCN)NC(=O)[C@H](CC(=O)O)NC(=O)[C@H](CC(C)C)NC(=O)C(C)(C)NC(=O)[C@@H](NC(=O)[C@H](CO)NC(=O)[C@H](Cc1ccc(O)cc1)NC(=O)[C@H](CC(=O)O)NC(=O)[C@H](CO)NC(=O)[C@@H](NC(=O)[C@H](Cc1ccccc1)NC(=O)[C@@H](NC(=O)CNC(=O)[C@H](CCC(=O)O)NC(=O)C(C)(C)NC(=O)[C@@H](N)Cc1ccc(O)cc1)[C@@H](C)O)[C@@H](C)O)[C@@H](C)CC)[C@@H](C)CC)C(C)C)C(=O)N[C@@H](C)C(=O)NCC(=O)NCC(=O)N1CCC[C@H]1C(=O)N[C@@H](CO)C(=O)N[C@@H](CO)C(=O)NCC(=O)N[C@@H](C)C(=O)N1CCC[C@H]1C(=O)N1CCC[C@H]1C(=O)N1CCC[C@H]1C(=O)N[C@@H](CO)C(N)=O` is reported as 24 h (human, mild hepatic impairment; subcutaneous, 5 mg).
`C[C@H]1C(=O)O[C@@H]2CCN3CC=C(COC(=O)[C@](C)(O)[C@]1(C)O)[C@H]23` gave a blood-to-plasma ratio of 1.07 (human, whole blood; 1000 ng/mL, 60 min, 37 °C).
`CCCCCOc1ccc(-c2cc(-c3ccc(C(=O)N[C@H]4C[C@@H](O)[C@@H](O)NC(=O)[C@@H]5[C@@H](O)[C@@H](C)CN5C(=O)[C@H]([C@H](O)CC(N)=O)NC(=O)[C@H]([C@H](O)[C@@H](O)c5ccc(O)c(OS(=O)(=O)O)c5)NC(=O)[C@@H]5C[C@@H](O)CN5C(=O)[C@H]([C@@H](C)O)NC4=O)cc3)no2)cc1`: “clearance at steady state” 0.198 mL/min/kg (human children aged 6-11 years, plasma; intravenous, 3 mg/kg once daily, day 7, median).
With `CCOCN(C(=O)CCl)c1c(C)cccc1CC` the remaining amount was 84.1 ± 23.3% (LC-MS/MS; herbicide solution; 2 h, 4 °C, with: 365 nm UV exposure).
`CN[C@H](CC(C)C)C(=O)N[C@H]1C(=O)N[C@@H](CC(N)=O)C(=O)N[C@H]2C(=O)N[C@H]3C(=O)N[C@H](C(=O)N[C@H](C(=O)O)c4cc(O)cc(O)c4-c4cc3ccc4O)[C@H](O)c3ccc(c(Cl)c3)Oc3cc2cc(c3O[C@@H]2O[C@H](CO)[C@@H](O)[C@H](O)[C@H]2O[C@H]2C[C@](C)(N)[C@H](O)[C@H](C)O2)Oc2ccc(cc2Cl)[C@H]1O` gave a tissue concentration of 7500 ± 1000 ng/g (perfused placental lobule tissue; 25 µg/mL, 240 min).
`CC(=O)N[C@H](CCCCNC(=O)C(C)F)C(=O)N[C@@H](CS)C(=O)N[C@@H](CS)C(=O)N[C@@H](CCC(=O)O)C(=O)N[C@@H](Cc1c[nH]cn1)C(=O)N[C@H](Cc1ccccc1)C(=O)N[C@@H](CCCNC(=N)N)C(=O)N[C@@H](Cc1c[nH]c2ccccc12)C(=O)N[C@@H](CS)C(=O)N[C@@H](CCCNC(=N)N)C(=O)N1CCC[C@H]1C(=O)N[C@H](C(N)=O)C(C)C` (stereo partly drawn) [fluorine-18 labelled] gave a tissue uptake of 0.04 ± 0.01 %ID/g (C57BL/6 mice, male, B16-F10 tumour, brain; intravenous, 4 h).
`CC(=O)CO` gave a specification limit of 90 µg/mL (propylene glycol; dermal, toxicity-qualified).
With `CCC[S+]([O-])c1ccc2[nH]c(NC(=O)OC)nc2c1` (stereo not drawn) the percent metabolized was 0% (human liver mitochondrial preparation; 1 µM, 30 min, 0.5 mg/mL protein).
The remaining compound of `CC(C)C(=O)OC[C@H]1O[C@@H](n2ccc(NO)nc2=O)[C@H](O)[C@@H]1O` is reported as 106 ± 1.73% (rat blood dialysate; 5 ng/mL, 6 h, room temperature, bench-top stability, with: NHC 25 ng/mL).
